Assay results of several laboratories.
Parts stem from different laboratories: compare values within a part only.

Series 1
Target: RNA binding protein fox-1 homolog 2, RRM domain, GST-SBP tag (RBFOX2, Homo sapiens, UniProt O43251-10, residues 100-194)
Method: RNA Bind-n-Seq
Form: RNA
Medium: in vitro
Concentration: 365 nM
Setting: natural RNA segment, single round, ends assumed
Reference: no-protein control
Reading: higher = stronger binding
Construct (chain): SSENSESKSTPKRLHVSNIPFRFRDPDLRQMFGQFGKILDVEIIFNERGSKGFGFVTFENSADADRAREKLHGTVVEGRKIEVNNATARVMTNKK
Strand	RBNS enrichment (R)
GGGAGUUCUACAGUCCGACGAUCCAGGAAGACCAAGGCCUCGGCAGAACUCUCUGUCUUCUCUCCACUUCUGGUCCCCUGUGGUGAUGUGCCUGUAAUCUUUUUCUCCACCCAAACCCCUUCCCACGACAAAAUGGAAUUCUCGGGUGCCAA	3.78
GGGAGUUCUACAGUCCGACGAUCGCUGGGGUUGAACAGAGCCUCCCACCUGGGAAGGCAGAGCAGACCUGCCCAAGAGCUCCCCACACGCCUCACGUGUUGGAGGGACUGAACACGUCCAGCCAAUCACCUGAUGGAAUUCUCGGGUGCCAA	0.329
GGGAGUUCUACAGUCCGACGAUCUGUACUGCCUGAGUUGUGCCUCUUGUGUGCUAGAUUAAAAGUGAGACAGAGACUUGACUUGAUCCUCUGAGCUCAAGCUAUUGAGCUGGUAGUGGCAGAGGACUGAGGGUUGGAAUUCUCGGGUGCCAA	0.397
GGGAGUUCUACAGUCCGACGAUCCCUAGGGAAUGGAGAAUUCAUGUGAAGCCGAAUGAAGGAUCUUAUCUUAUACUGUCCCCCUUUCUAAUGGCCACUCUUUAGUGUUUGUGUCUAAUGUUAAUGCUUAAAGCUGGAAUUCUCGGGUGCCAA	0.96
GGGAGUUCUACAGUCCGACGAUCUCCUUGCUUCAGAAUUGAAAUGGAAGUGGGGGUGUCCCUACUCUGUAGAAUCUGGGACUGGGCAAAUGUUUGUGUGGCCUCCUUAAACUAGCUGUUAUGUUAUGAUUUUAUGGAAUUCUCGGGUGCCAA	1.55
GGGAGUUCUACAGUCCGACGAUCUCGCACCAUUGCACUUUAGAAAUAACACGGAGUGUUCCCAAGGGCCUCAGGUGGACUGCCACCCUGCCUUUAUCUCUGUAGGAUAAGAGGAGGAUGACUGGCCUCUGGCCUGGAAUUCUCGGGUGCCAA	0.506
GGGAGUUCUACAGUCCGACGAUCACUCAGCCCCCUGGUCUAAGCUGGACUUACCUCUGUGGAUUCUGAAAUUAAAGAAGUGAGUUGCUAAGGAAGGCCCUGACUCCUAUAGAAGGGAGGUCCAUGUGGGCCCAUGGAAUUCUCGGGUGCCAA	1.03
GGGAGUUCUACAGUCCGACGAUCCUGCCCUACAAAAUGCUCUUCAUUGGUUGUCUCUGUGAGAGCACUGUCCCCACCCAACCUGUCACAACGGCCAGAACCAUACACCAGAGACACACUGGCAGGUUAGGCAGUGGAAUUCUCGGGUGCCAA	0.416
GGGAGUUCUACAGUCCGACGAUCGGAGGAGGAGCCAGGCAGCAGGGCCUUCCUGACCAACAGCCAGCUCUGUCCUUCCCCCCAGGAAACACAUGUUCAUUUGUGUGAUCAUGUAUAGACCUCAGAACGGAAGAUGGAAUUCUCGGGUGCCAA	0.248
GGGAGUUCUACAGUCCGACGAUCCAUUACUUUUGAAAUUUGCAGGACGAAGGGCAUGCUUUUGGUUUGCUGUAAGAUUGUAUUCUGUAUAUAUGUUUUCAUGUAAAUAAAUGAAAAUCUAUAUCAGAGUUAUAUGGAAUUCUCGGGUGCCAA	4.84
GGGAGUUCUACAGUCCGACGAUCCUUGUUUCAGAUCAUAUUGAUCUCUUUCCUUUUGUCUCUCACCGUAUGGUAUGACUUGAAUCAGUUUUGAUUCUAUGUGUAAGUUCUCAUCGUUUGGAACCUGGUAUUUCUGGAAUUCUCGGGUGCCAA	0.422
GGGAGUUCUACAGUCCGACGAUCCCCAACCUACCACCCAAAAGAACCUUUUGGCCAGUUGUUAAAAGGACAGGAAUGAUUUUAUUCUGUAGUUGGAGCCCAAACUCAUUAAGGUACCCUUUAUGAGGCCAAGAUGGAAUUCUCGGGUGCCAA	0.323

Series 2
Target: RING finger protein unkempt homolog, zinc fingers 1-6, GST-SBP tag (UNK, Homo sapiens, UniProt Q9C0B0, residues 30-357)
Chain of UniProt Q9C0B0 (30-357, looked up): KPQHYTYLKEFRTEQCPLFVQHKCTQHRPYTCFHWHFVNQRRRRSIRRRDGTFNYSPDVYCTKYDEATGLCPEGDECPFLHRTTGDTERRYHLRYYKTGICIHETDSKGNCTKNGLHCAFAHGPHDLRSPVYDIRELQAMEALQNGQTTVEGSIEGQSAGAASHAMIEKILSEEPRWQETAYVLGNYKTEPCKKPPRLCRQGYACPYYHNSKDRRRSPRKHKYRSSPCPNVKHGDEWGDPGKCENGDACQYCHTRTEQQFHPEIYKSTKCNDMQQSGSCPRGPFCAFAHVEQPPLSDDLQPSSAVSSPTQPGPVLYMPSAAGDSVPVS
Method: RNA Bind-n-Seq
Form: RNA
Medium: in vitro
Concentration: not given
Setting: RNA with constant flanks, human-mouse chimeric sites, ends assumed
Reference: input RNA pool
Reading: higher = stronger binding
Strand	bound/input enrichment [ratio]
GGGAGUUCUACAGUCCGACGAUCCACAGAGCAGCACCUACCCCCUCCUCCUUUCCACACCUGCAAACUCUUUUGCCUGGGCUGAAUAUUUAGUGUAAUUACAUCUCAGCUUUUGAGGGCUCUGUGGCAAAUUCCCGGAUUAAACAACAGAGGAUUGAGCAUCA	0.577
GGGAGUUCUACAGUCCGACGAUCGCUCUUGGGAAUGUAAUCAGCGCCUUGGGGGACAAGAGCAAGAGAGCCACCCAUGUCCCUUACAGAGACUCUAAGCUGACAAGACUCCUACAGGAUUCCCUCGGGGGUAACAGCCAAACCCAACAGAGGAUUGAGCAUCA	0.169
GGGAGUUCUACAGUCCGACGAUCAUGGAACAUUUCGAUGCAUCACUUAGUACCUAUUUCAAGGCCUUCCUGGGCCCCCGAGAUACUAGAGUCAAAGGAUGGUUCCUCCUGGACAAUUACAUCCCUACGUUUGUCUGUUCUGUUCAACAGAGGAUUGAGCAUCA	0.252
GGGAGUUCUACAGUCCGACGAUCCAGCCUCAGAGCCCAGACUUCCUGGAUAUUACCAACCCCAAAGCCGUAUUAGAAAAUGCAUUGAGAAACUUCGCCUGUCUGACGACUGGAGAUGUGAUUGCUAUCAACUAUAAUGAAAAGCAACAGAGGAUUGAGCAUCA	0.56
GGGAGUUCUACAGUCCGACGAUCAACAGAUUGUCUUUAAGCAUUCCAAGCGAGAAUGCUGGGGUGAUCAUUGUUGCCCAUGUGCCUUCUGACUGAGCUUUUAAUUAAUUGCAUGUUACAUCUUUCCUUCACUCCAGAAUUGUUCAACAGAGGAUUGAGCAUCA	0.261
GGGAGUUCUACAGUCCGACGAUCUGUGAACUGUCUCUUGAGAUCUAAAAACAAGAUGACUUUUCCUGGCACAUAUUUCAAAGCAAAGACUUUGUUGCCUGCUGCUUCUUGUCUAAUUUACAGGGAUAUUUAAUUUUGUCAGGUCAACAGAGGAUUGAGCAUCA	0.123
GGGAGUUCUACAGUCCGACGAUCACUCUUGACUCUUUCCAUCCUCUUCCUUUCCCUCUUGAUAUUCAAGGCCAUGAAUCCCAAAAUAACAAUCUAUCUUACUAGCACCCACCCAAACUGAGAAUAAAUCCACCCCAGUGUCUCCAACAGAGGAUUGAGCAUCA	1.45
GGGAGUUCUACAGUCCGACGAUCGCUCUUGGGAAUGUAAUCAGCGCCUUGGGGGACAAGAGCAAGAGGGCCACCCAUGUCCCCUAUAGAGACUCUAAGCUGACAAGACUCUUGCAGGAUUCCCUUGGGGGUAACAGCCAAACCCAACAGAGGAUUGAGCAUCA	0.186
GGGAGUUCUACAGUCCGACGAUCCUGAGGAAUACCACUGAGAGACCUUAAAAGAAUCAUUUGAGGGCUCUGUUCGUGCAAGAAUAGUCACUGAUCGGGAAACUGGUUCUUCCAAAGGGUUUUGGUUUUGUGACUUUAAUAGUGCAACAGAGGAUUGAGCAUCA	0.413
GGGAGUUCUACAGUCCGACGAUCGACUUGGGACCGUCCUGGGCUAGUACAAUAGCGGCAGGUGGAGGCUCGAGAGGAAAGUUUGUUAGUGGAGGCAGUGGUAGAGGCCGUCAUGUACGGUCCUUUACUCGAUAGAUGUGUUCUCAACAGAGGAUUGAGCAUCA	0.243
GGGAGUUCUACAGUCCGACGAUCCUUAAUGUUAAUAUUUUUGAAUAAAUGAAGCUAAAAUGUCUGCUUUUGGUACAACACGCAUUAAUAAAAGGUUAAGUAAGUUUUGUUACUGAAGUACUAUUUAACAUACAUCUCAGAAACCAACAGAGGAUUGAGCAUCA	0.28

Series 3
Target: Interferon regulatory factor 3, full length, phosphomimetic (IRF3, Homo sapiens, UniProt Q14653, residues 1-427, S386D/S396D/S398D/S402D/T404D/S405D)
Method: protein-binding microarray
Form: double-stranded DNA, one strand shown
Medium: in vitro
Concentration: 2540 nM top
Setting: 60-bp whole probe
With: salmon DNA 0.4 mg/ml
Reference: random background probes
Reading: higher = stronger binding
Constant ends, left off below: GCCTAGCAC … GTCTTGATTCGCTTGACGCTGCTG
Target sequence (chain): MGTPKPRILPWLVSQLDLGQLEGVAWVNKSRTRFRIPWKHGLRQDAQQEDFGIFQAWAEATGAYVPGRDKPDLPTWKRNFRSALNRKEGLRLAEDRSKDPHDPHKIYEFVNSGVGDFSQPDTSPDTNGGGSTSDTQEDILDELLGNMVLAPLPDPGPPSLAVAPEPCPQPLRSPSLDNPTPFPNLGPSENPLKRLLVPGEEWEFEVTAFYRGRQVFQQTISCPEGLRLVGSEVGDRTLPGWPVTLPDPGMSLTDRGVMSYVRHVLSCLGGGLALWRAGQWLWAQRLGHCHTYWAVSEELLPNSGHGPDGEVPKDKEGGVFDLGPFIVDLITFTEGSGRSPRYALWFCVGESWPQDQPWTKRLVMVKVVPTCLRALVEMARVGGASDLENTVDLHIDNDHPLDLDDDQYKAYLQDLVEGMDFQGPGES
Strand	fitted relative affinity [z-score]
TTCGGTTTCGGGACTGGGTTAGTGCTA	5.34
CTAATATTGAGACTCATGGGGTGCTAG	0.9
TTTATTTTCAGTATTACCTCGTGCTAG	2.4
GACGGTCTCCTTATACTGACGTGCTAG	2.38
TTAGGTAACGGTTTCGGTTAGTGCTAG	4.76
ATGCTTCTGGTCTTCTGGGCGTGCTAG	-0.343
AGAGCAGACCCAGAGTGGCAGTGCTAG	-0.709
GACGAACCGGGGTTTCGAGACGTGCTA	0.574
GACGATCTCAGTTTCCAGACGTGCTAG	3.52
GACGGCCTGGGTTTCGGGACGTGCTAG	0.628
GACGGTCTCCTTCTCCTGAGGTGCTAG	4.2
GGTTTTCTAATGTTTTTTAAAGTGCTA	2.94
TCATATTTTTTTCCAGAACTGTGCTAG	0.756
TTAGTTATCGACTTTCGGTTAGTGCTA	2.04
GACGGACAGGGACTGGGGACGTGCTAG	-0.858
GACGGTAGCGGTATCGGGACGTGCTAG	1.05
TTAGGTTTCTACACTGGGTTAGTGCTA	0.948
GACGGTATCTGTTTCGGGACGTGCTAG	4.8
TTAGGTTCCGGTTTCGGCTAGTGCTAG	6.11
GACGGTCTCCTTCTCCTGGCGTGCTAG	4.27
TGTCTTCCCCTCTCTTTCCAAGTGCTA	1.63
TCACTTTGCTTTCTCCCACTGTGCTAG	2.4
GACGGCCTGGGGTTTCGGGACGTGCTA	0.159
TTAGGACTGGTACTGCTTTAGTGCTAG	-0.553
GACGGGTTCGACTATCGGGACGTGCTA	-0.0625

Series 4
Target: Transcriptional repressor CTCF (CTCF, Homo sapiens, UniProt P49711, residues 1-727, full length assumed)
Chain of UniProt P49711 (whole entry, looked up): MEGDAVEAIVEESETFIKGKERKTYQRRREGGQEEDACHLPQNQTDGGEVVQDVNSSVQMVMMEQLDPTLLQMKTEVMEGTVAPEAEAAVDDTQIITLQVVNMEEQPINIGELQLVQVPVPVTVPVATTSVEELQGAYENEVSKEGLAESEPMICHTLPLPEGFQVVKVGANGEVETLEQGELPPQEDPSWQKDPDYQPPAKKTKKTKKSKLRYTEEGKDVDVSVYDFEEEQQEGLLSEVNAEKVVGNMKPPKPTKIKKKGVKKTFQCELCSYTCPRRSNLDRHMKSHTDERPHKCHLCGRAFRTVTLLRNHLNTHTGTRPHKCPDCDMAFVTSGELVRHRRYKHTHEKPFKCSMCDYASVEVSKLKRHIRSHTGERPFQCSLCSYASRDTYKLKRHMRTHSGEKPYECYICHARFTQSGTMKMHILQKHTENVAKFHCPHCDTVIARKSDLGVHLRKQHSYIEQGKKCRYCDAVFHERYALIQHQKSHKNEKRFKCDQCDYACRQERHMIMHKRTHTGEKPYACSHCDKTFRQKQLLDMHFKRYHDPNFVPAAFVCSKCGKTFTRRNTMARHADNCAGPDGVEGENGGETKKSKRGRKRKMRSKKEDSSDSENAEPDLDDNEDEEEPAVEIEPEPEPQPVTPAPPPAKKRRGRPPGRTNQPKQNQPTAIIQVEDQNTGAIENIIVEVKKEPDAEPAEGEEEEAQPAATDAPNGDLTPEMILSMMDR
Method: protein-binding microarray
Form: double-stranded DNA, one strand shown
Medium: in vitro
Concentration: not given
Setting: k-mer, scored over probes, only values ≥0.25
Reading: higher = stronger binding
Strand	E-score
CATAATAC	0.289
TAACAGCA	0.262
AATAAAAC	0.365
CTGGTGGC	0.288
ATAACGTC	0.338
AATTTTCA	0.282
ATTACCGC	0.282
ACAAATTA	0.31
AAGTAAAT	0.252
TCGCATAA	0.253
AAACGTAA	0.3
ACATGTTG	0.26
ATGCGCAC	0.46
ATAATTAT	0.369
AACATATA	0.349
ATGTGAAT	0.268
ACACTAGG	0.286
CGGTAATA	0.265
AATATTCA	0.272
ACGCGCCC	0.308
TCTGCGCA	0.356
AATTAATG	0.262
ATTGCGCG	0.361
GTCTGTTA	0.309
GCGCACTA	0.318

Excerpt of the above (series 3):
Strand	fitted relative affinity [z-score]
GACGGCCTGGGTTTCGGGACGTGCTAG	0.628
GGTTTTCTAATGTTTTTTAAAGTGCTA	2.94
TTAGGTAACGGTTTCGGTTAGTGCTAG	4.76
GACGGGTTCGACTATCGGGACGTGCTA	-0.0625
CTAATATTGAGACTCATGGGGTGCTAG	0.9
TCACTTTGCTTTCTCCCACTGTGCTAG	2.4
TTAGGTTTCTACACTGGGTTAGTGCTA	0.948
GACGGTCTCCTTCTCCTGGCGTGCTAG	4.27
